Measured values gathered from unrelated publications.
Protocols differ between the studies behind these lines.

Molecule	target or system	assay	system	setting	measurement	result
CC[C@H](C)[C@H](NC(=O)[C@H](CC(C)C)NC(=O)[C@H](Cc1c[nH]c2ccccc12)NC(=O)[C@H](CCC(N)=O)NC(=O)[C@@H](NC(=O)[C@H](Cc1ccccc1)NC(=O)[C@H](C)NC(=O)[C@H](CCCCNC(=O)COCCOCCNC(=O)COCCOCCNC(=O)CC[C@H](NC(=O)CCCCCCCCCCCCCCCCCCC(=O)O)C(=O)O)NC(=O)[C@H](CCC(N)=O)NC(=O)[C@H](C)NC(=O)[C@@H](NC(=O)[C@H](CCCCN)NC(=O)[C@H](CC(=O)O)NC(=O)[C@H](CC(C)C)NC(=O)C(C)(C)NC(=O)[C@@H](NC(=O)[C@H](CO)NC(=O)[C@H](Cc1ccc(O)cc1)NC(=O)[C@H](CC(=O)O)NC(=O)[C@H](CO)NC(=O)[C@@H](NC(=O)[C@H](Cc1ccccc1)NC(=O)[C@@H](NC(=O)CNC(=O)[C@H](CCC(=O)O)NC(=O)C(C)(C)NC(=O)[C@@H](N)Cc1ccc(O)cc1)[C@@H](C)O)[C@@H](C)O)[C@@H](C)CC)[C@@H](C)CC)C(C)C)C(=O)N[C@@H](C)C(=O)NCC(=O)NCC(=O)N1CCC[C@H]1C(=O)N[C@@H](CO)C(=O)N[C@@H](CO)C(=O)NCC(=O)N[C@@H](C)C(=O)N1CCC[C@H]1C(=O)N1CCC[C@H]1C(=O)N1CCC[C@H]1C(=O)N[C@@H](CO)C(N)=O	–	–	healthy subjects	1.5 mg, multiple ascending dose	application site erythema incidence	0%
VVIKVCEFQFCNDPF	human CD4 T cells	AIM	peptide	–	responding donors	9%
Nc1ncnc2c([C@@H]3N[C@H](CO)[C@@H](O)[C@H]3O)c[nH]c12	Zaire ebolavirus	antibody staining	human macrophages	3.1 µM	antigen-positive cells	56.7%
CNC(=O)[C@@H](NC(=O)[C@H](CCCc1ccccc1)[C@H](C)N(O)C=O)C(C)(C)C	Replicase polyprotein 1ab, main protease (rep, Severe acute respiratory syndrome coronavirus 2, UniProt P0DTD1)	reporter gene (Gaussia luciferase), inhibitor	–	20 µM	inhibition	0.811%
WDLTAFGLVAEWFLA	human CD4 T cells	AIM	peptide	–	responding donors	8%

For quick reference, copied from above:
Molecule	target or system	assay	system	setting	measurement	result
CNC(=O)[C@@H](NC(=O)[C@H](CCCc1ccccc1)[C@H](C)N(O)C=O)C(C)(C)C	Replicase polyprotein 1ab, main protease (rep, Severe acute respiratory syndrome coronavirus 2, UniProt P0DTD1)	reporter gene (Gaussia luciferase), inhibitor	–	20 µM	inhibition	0.811%
